Measured values of several laboratories.
Lines come from different studies, so protocols differ.
FLT3 autoinhibited: Receptor-type tyrosine-protein kinase FLT3, autoinhibited (FLT3, Homo sapiens, UniProt P36888)
FLT3: Receptor-type tyrosine-protein kinase FLT3 (FLT3, Homo sapiens, UniProt P36888)

Structure (SMILES)	target	read-out	method	concentration	relative to	remaining binding
CNC1C[S+]2CC[S+]3CC[S+](C1)[Ru-4]321([N]=C=S)[n]2c3ccc(OC)cc3c3c4c(c5cc(F)c[n+]1c5c32)C(=O)NC4=O (stereo not drawn)	FLT3 (Homo sapiens, UniProt P36888, R834Q)	–	KinomeScan	0.1 µM	untreated	44%
CCN1CCN(Cc2ccc(C(=O)Nc3ccc(C)c(NCc4cnc5[nH]ccc5c4OC)c3)cc2C(F)(F)F)CC1	FLT3 autoinhibited	binding	competition with immobilised ligand	1 µM	–	76%
Cc1ccc(-c2c(/C=C(\C#N)C(=O)NC(C)C)n(CCCO)c3ncnc(N)c23)cc1	FLT3	cell-free assay	competition with immobilised ligand	1 µM	–	52%
Nc1ncc2c(n1)-c1c([nH]c3ccc(C4=CCOCC4)cc13)CCC2	FLT3 (Homo sapiens, UniProt P36888, D835H)	binding	competition with immobilised ligand	1 µM	–	99%
C=CC(=O)N1CCc2ccc(-n3c(=O)ccc4cnc5ccc(-c6cnn(C)c6)cc5c43)cc21	FLT3 autoinhibited	–	KINOMEscan	1 µM	DMSO control	95%
COc1c(Cl)cccc1Nc1c(-c2ccncc2C#C[C@@]2(C)CCCN2C(=O)/C=C/CN(C)C)[nH]c2c1C(=O)NCC2	FLT3	binding	competition with immobilised ligand	3 µM	–	100%
CNC(=O)C1CCN(c2cc(C)c(F)cc2NC(=O)c2ccc(-c3cc(O)ccc3C)c(C)c2)CC1	FLT3 autoinhibited	binding	competition with immobilised ligand	1 µM	–	53%
Cc1cnc2nc1Nc1cccc(c1)COC/C=C/COCc1cc(ccc1OCCN1CCOCC1)N2	FLT3	binding	–	0.1 µM	–	0.75%
CC(C)=CC1OC(C)(C)C2C=C3C(=O)C(Cl)=CC(O)C3C3C(O)C4OC4C(=O)C132 (stereo not drawn)	FLT3 (Homo sapiens, UniProt P36888, F691L/ITD)	cell-free assay	competition with immobilised ligand	10 µM	–	56%
